Assay results pooled from the literature.
Compare with care: the assays were run in different laboratories. ± gives the spread as reported.
CA2 A65S/F130A/I91T/L203N/N67K/V134S: Carbonic anhydrase 2 (CA2, Homo sapiens, UniProt P00918, A65S/F130A/I91T/L203N/N67K/V134S)
CA2: Carbonic anhydrase 2 (CA2, Homo sapiens, UniProt P00918)

Structure (SMILES) | target | assay | setting | endpoint | result
NS(=O)(=O)c1c(F)c(F)c([S+]([O-])CCO)c(F)c1NC1CCCCCCC1 (centres unmarked) | CA2 A65S/F130A/I91T/L203N/N67K/V134S |  | pH 7 | Kd | 2 µM
NS(=O)(=O)c1ccc(NC(=O)NN[C@@H]2O[C@H](CO)[C@H](O)[C@H](O)[C@H]2O)cc1 | CA2 | enzyme activity, inhibitor |  | IC50 | 0.019 µM
COC(=O)CCCNC(=O)c1cc(S(N)(=O)=O)c(Cl)cc1NC1CCCCC1 | CA2 |  |  | Kd | 0.53 µM
COc1coc(C)cc1=S | CA2 | esterase activity, inhibitor | 10 min preincubation, pH 8.0, with: p-nitrophenyl acetate | Ki | 6900 ± 1000 µM
COc1ccccc1/C=N/NC(=O)CSc1nc2ccccc2c(=O)n1CCc1ccc(S(N)(=O)=O)cc1 | CA2 | enzyme activity, inhibitor, stopped-flow |  | Ki | 0.185 µM
COCCOc1cc2ncnc(Nc3cccc(-c4cn(CCc5ccc(S(N)(=O)=O)cc5)nn4)c3)c2cc1OCCOC | CA2 | enzyme activity, inhibitor, stopped-flow |  | Ki | 0.0184 µM
COc1cccc(/C(C)=N/NC(=O)CSc2nc3ccccc3c(=O)n2CCc2ccc(S(N)(=O)=O)cc2)c1 | CA2 | enzyme activity, inhibitor, stopped-flow |  | Ki | 0.0558 µM
C[C@@H]1O[C@@H](NNC(=O)Nc2ccc(S(N)(=O)=O)cc2)[C@H](O)[C@H](O)[C@H]1O | CA2 | enzyme activity, inhibitor |  | IC50 | 0.058 µM
NS(=O)(=O)c1ccc(Nc2nc3nccc(-c4ccc5ccccc5c4)n3n2)cc1 | CA2 | enzyme activity, inhibitor, stopped-flow |  | Ki | 0.326 µM
CC(=O)Nc1ccc(S(N)(=O)=O)cc1 | CA2 | enzyme activity, inhibitor |  | Ki | 0.0677 µM
NS(=O)(=O)c1c(F)c(F)c(S(=O)(=O)CCO)c(N[C@H]2CCc3ccccc32)c1F | CA2 A65S/F130A/I91T/L203N/N67K/V134S |  | pH 7 | Kd | 0.0125 µM
COc1ccc(C(=O)Nc2cccc(S(N)(=O)=O)c2)cc1OC | CA2 | enzyme activity, inhibitor, absorbance |  | IC50 | 0.18 µM
NS(=O)(=O)c1ccc(N/N=C2\C(=O)N(CC(=O)Nc3ccccc3Cl)c3ccccc32)cc1 | CA2 |  |  | Ki | 0.804 µM
NS(=O)(=O)c1cc(C(=O)NCCCC(=O)O)c(S(=O)(=O)c2ccccc2)cc1Cl | CA2 A65S/F130A/I91T/L203N/N67K/V134S |  | pH 7 | Kd | 0.01 µM
NS(=O)(=O)c1ccc(NC(=O)NN[C@@H]2OC[C@@H](O)[C@H](O)[C@H]2O)cc1 | CA2 | enzyme activity, inhibitor |  | IC50 | 0.052 µM
NS(=O)(=O)c1ccc(N2N=C(c3ccccc3O)CC2c2ccc(Br)cc2)cc1 (centres unmarked) | CA2 | enzyme activity, inhibitor, absorbance |  | IC50 | 1.8 µM
Cc1ccc(S(=O)(=O)Nc2cccc(C)c2C)cc1 | CA2 | enzyme activity, inhibitor |  | IC50 | 1.91 µM
NS(=O)(=O)c1c(F)c(F)cc(F)c1N[C@H]1CCCc2ccccc21 | CA2 A65S/F130A/I91T/L203N/N67K/V134S |  | pH 7 | Kd | 12.5 µM
C[C@@H]1O[C@H](NC(=O)c2ccc(S(N)(=O)=O)cc2)[C@H](O)[C@H](O)[C@H]1O | CA2 | enzyme activity, inhibitor, absorbance |  | IC50 | 0.07 µM
NS(=O)(=O)c1c(F)c(F)c(SCCc2ccc(C(=O)O)cc2)c(F)c1F | CA2 |  |  | Kd | 0.002 µM
C#CCN(CCCOC(=O)NCCc1ccc(S(N)(=O)=O)cc1)c1cccc(C(F)(F)F)c1 | CA2 | enzyme activity, inhibitor, absorbance |  | IC50 | 0.59 µM
NS(=O)(=O)c1c(F)c(F)c(NCCc2ccc(O)cc2)c(F)c1NC1CCCCCCC1 | CA2 A65S/F130A/I91T/L203N/N67K/V134S |  |  | Kd | 12.5 µM
COc1ccc(NC(=O)CN2C(=O)/C(=N\Nc3ccc(S(N)(=O)=O)cc3)c3ccccc32)cc1 | CA2 |  |  | Ki | 0.18 µM

Some of these lines once more:
Structure (SMILES) | target | assay | setting | endpoint | result
COC(=O)CCCNC(=O)c1cc(S(N)(=O)=O)c(Cl)cc1NC1CCCCC1 | CA2 |  |  | Kd | 0.53 µM
